Published values gathered from unrelated publications.
Parts stem from different laboratories: compare values within a part only.
Sequence of UniProt P43403 (whole entry, looked up): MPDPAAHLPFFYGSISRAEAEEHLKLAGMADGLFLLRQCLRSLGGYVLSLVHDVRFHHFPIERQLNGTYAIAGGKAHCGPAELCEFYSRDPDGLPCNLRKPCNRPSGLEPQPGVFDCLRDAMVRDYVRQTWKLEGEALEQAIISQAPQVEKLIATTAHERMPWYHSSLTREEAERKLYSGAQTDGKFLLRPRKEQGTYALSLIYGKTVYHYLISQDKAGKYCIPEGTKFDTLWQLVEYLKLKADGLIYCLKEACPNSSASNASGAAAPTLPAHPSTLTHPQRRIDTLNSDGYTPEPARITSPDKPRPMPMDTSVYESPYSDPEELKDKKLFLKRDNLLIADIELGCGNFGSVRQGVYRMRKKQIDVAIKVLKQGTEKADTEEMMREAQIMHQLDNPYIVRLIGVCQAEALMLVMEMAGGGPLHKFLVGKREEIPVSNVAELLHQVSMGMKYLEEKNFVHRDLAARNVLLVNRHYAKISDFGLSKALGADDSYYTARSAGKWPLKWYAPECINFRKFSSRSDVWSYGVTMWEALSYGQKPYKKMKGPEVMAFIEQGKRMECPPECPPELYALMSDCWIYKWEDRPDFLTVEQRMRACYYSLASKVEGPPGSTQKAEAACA
Sequence of UniProt O96013 (whole entry, looked up): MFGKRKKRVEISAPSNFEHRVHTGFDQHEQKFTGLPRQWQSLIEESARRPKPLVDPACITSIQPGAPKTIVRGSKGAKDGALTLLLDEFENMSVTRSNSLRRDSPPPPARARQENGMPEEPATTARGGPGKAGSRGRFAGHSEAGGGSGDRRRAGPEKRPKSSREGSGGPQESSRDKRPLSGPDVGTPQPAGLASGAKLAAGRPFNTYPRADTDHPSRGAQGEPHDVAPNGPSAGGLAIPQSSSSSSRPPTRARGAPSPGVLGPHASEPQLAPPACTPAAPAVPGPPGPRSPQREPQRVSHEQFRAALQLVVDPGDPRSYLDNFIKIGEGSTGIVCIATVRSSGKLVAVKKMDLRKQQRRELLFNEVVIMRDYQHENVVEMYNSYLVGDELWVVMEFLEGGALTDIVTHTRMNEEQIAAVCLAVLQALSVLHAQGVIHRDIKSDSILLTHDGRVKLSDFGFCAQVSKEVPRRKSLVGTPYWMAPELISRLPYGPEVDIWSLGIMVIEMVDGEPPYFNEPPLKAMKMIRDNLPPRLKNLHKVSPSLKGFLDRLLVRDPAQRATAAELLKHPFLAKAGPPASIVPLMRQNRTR
Sequence of UniProt Q8NEV4 (whole entry, looked up): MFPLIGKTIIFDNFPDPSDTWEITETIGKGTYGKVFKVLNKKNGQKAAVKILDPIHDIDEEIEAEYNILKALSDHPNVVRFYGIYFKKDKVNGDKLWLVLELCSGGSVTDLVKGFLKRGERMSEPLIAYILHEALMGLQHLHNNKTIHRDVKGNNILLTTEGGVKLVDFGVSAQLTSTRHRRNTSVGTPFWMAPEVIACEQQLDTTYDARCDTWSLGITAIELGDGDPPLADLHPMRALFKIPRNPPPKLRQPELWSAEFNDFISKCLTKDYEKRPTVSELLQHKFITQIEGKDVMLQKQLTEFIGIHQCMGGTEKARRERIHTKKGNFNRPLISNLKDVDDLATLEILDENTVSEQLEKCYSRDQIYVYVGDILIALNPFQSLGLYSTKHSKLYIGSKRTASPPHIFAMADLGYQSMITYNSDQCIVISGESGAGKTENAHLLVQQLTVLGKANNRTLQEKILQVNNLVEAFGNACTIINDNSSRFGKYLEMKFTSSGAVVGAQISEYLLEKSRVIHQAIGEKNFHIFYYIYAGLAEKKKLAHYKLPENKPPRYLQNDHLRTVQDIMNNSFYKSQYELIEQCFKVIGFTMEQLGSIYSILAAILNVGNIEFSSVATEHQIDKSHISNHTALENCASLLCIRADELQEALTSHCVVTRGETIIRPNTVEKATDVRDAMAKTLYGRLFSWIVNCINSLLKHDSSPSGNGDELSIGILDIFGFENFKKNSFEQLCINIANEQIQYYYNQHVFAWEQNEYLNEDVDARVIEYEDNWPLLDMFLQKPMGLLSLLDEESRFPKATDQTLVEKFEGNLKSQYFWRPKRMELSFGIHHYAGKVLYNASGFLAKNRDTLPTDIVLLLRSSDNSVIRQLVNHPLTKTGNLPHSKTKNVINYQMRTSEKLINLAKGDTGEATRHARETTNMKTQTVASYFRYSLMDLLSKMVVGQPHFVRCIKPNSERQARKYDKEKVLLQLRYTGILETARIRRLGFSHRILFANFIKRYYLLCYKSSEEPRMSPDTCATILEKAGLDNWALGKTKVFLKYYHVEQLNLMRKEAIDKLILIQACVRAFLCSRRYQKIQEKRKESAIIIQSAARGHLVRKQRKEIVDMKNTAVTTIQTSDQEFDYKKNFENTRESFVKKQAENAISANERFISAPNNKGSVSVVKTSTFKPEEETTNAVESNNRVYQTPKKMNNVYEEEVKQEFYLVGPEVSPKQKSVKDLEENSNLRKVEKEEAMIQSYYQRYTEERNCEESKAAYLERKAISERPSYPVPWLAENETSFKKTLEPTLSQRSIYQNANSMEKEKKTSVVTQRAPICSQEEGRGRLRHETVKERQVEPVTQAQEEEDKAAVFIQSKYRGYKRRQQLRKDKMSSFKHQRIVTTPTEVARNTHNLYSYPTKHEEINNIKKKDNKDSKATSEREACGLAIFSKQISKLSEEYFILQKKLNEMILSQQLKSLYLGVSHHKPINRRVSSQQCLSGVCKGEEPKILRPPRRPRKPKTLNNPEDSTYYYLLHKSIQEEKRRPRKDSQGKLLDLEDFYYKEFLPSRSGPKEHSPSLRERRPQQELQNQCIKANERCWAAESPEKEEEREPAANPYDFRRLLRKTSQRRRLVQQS
Sequence of UniProt P51617 (whole entry, looked up): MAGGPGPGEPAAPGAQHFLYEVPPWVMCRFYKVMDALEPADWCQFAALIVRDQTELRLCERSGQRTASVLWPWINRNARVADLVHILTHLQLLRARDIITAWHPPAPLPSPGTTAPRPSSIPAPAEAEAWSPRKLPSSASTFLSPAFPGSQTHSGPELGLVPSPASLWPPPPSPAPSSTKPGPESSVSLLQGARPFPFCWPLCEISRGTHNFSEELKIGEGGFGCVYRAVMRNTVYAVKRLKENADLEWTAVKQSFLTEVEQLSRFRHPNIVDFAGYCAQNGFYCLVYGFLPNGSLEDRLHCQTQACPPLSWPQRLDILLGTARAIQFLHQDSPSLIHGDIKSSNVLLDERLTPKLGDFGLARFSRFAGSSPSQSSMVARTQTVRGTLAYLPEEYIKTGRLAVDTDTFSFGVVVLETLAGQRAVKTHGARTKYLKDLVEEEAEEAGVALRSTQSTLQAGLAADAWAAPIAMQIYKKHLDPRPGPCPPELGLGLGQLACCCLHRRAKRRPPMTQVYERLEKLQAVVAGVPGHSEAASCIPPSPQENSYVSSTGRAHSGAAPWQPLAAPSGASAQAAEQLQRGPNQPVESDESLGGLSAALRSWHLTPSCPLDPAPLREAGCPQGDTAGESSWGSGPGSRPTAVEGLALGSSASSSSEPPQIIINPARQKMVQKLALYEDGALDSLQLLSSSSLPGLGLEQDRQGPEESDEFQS

Set 1
Target: Histamine H1 receptor (HRH1, Homo sapiens, UniProt P35367)
Sequence of UniProt P35367 (whole entry, looked up): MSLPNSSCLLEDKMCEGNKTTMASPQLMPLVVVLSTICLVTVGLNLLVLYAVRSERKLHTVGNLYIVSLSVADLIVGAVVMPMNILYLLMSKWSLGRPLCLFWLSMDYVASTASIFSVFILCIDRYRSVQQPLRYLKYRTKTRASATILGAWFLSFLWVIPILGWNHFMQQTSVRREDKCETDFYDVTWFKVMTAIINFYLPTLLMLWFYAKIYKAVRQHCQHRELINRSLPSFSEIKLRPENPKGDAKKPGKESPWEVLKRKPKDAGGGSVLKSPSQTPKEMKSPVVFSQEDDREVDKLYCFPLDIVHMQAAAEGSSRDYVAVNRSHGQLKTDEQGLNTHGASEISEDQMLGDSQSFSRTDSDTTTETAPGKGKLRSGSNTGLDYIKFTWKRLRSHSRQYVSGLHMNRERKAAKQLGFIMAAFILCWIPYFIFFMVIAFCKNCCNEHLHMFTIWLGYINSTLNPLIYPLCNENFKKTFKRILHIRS
Observed: ligand displacement
Concentration: 10 µM
Quantity: inhibition
O=S(=O)(NC1CCC(c2cc(F)ccc2F)(S(=O)(=O)c2ccc(Cl)cc2)CC1)C(F)(F)F (stereo not shown): 20.3%
CCOc1ccc(S(=O)(=O)Nc2ccc(Cl)cc2C#Cc2cnc(C(=O)O)cc2OC)c2ncccc12: 21.7%
CC[C@H](CC(=O)O)n1c(=O)c2ncccc2n(Cc2cn(C)c3cc(C)cc(C)c23)c1=O: 14.1%
Cc1cc(Nc2nccc(C)n2)cc(-c2cnc([C@@]3(O)CC[C@H](C(=O)O)C(C)(C)C3)s2)c1: 7.85%
C[C@@H]1CN(c2cc(-c3n[nH]c4ccc(OC5(C)CC5)cc34)ncn2)C[C@H](C)O1: -6.46%

Set 2
SMILES: O=C(Nc1cnn(-c2csc(C(=O)NC3COC3)c2)c1)Nc1ccccc1Cl
Observed: enzyme activity
Concentration: 5 µM
Quantity: remaining activity
Myosin-IIIa (MYO3A, Homo sapiens, UniProt Q8NEV4); inhibitor: 94.5%
IRAK1 (Homo sapiens, UniProt P51617); relative to: untreated control: 107%
PAK4 (Homo sapiens, UniProt O96013); relative to: untreated control: 92.2%
MAPK3 (Homo sapiens, UniProt P27361); relative to: untreated control: 90.1%
ZAP70 (Homo sapiens, UniProt P43403); relative to: untreated control: 98.4%
MAP3K12 (Homo sapiens, UniProt Q12852); relative to: untreated control: 92.4%

Set 3
Target: Beta-1 adrenergic receptor (ADRB1, Homo sapiens, UniProt P08588)
Sequence of UniProt P08588 (whole entry, looked up): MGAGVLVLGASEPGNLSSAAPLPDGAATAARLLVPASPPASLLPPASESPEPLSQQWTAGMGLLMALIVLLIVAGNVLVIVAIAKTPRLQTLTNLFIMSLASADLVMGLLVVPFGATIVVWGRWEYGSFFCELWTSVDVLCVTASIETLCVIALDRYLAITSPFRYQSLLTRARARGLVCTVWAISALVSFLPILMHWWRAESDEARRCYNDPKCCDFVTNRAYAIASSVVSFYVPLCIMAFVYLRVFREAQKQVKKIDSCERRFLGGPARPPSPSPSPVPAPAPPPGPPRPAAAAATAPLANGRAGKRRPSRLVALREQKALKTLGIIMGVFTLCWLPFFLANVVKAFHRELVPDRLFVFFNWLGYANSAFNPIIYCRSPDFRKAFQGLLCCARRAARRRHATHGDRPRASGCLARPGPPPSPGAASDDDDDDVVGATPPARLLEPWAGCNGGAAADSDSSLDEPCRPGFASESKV
Action: agonist
Quantity: EC50
CN(C)c1ccc(CN2CC[C@H](c3nc4ccc(C(F)(F)F)cc4[nH]3)C2)cc1: ≥ 100 µM
Fc1ccc(-c2nnc3ccc(Nc4ccc(N5CCOCC5)cc4)nn23)nc1: ≥ 100 µM
CN1CCN(CC(O)COc2ccc(CN3CC(c4ccccn4)C3)cc2)CC1 (stereo not shown): ≥ 100 µM
O=C1c2cnc(-c3cn[nH]c3)nc2OCCN1Cc1ccc(F)cc1F: ≥ 100 µM
CC(=O)Oc1ccc2c(C)cc(=O)oc2c1: ≥ 100 µM

Set 4
Target: Tyrosine-protein kinase Srms (SRMS, Homo sapiens, UniProt Q9H3Y6)
Sequence of UniProt Q9H3Y6 (whole entry, looked up): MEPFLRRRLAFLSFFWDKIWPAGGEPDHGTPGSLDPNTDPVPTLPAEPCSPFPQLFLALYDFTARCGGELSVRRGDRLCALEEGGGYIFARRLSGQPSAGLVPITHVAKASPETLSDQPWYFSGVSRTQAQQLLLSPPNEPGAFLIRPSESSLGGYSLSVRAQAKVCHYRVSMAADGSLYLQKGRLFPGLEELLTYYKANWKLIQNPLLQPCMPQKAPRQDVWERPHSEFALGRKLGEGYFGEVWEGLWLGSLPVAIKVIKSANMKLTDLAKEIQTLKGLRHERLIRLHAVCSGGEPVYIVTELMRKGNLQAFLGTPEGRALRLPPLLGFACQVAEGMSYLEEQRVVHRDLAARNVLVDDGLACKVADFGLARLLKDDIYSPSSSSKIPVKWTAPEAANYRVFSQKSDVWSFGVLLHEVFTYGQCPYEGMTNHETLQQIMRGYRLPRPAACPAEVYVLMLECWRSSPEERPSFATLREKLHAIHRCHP
Observed: enzyme activity
Action: inhibitor
Concentration: 0.5 µM
Relative to: control
Quantity: remaining activity
O=C(CCCc1ccc(-c2ccccc2F)cc1)Nc1ccc(O)cc1: 101%
CNC(=O)c1cc(Oc2ccc(NC(=O)Nc3ccc(Cl)c(C(F)(F)F)c3)cc2)ccn1: 107%
COc1cc2ncnc(Nc3ccc(Oc4ccccc4)cc3)c2cc1OC: 31.6%
Cc1cccc(-c2[nH]c(C(C)(C)C)nc2-c2ccc3c(c2)OCO3)n1: 102%
Cn1sc(=O)n(Cc2ccccc2)c1=O: 96.2%
N#CC(C#N)=C(N)/C(C#N)=C/c1ccc(O)cc1: 107%
CN(C)c1ccc(C=C2C(=O)Nc3ccccc32)cc1: 97.9%
COc1cc2nccc(Oc3ccc(NC(=S)NC(=O)c4ccccc4C)cc3)c2cc1OC: 111%
COc1ccc(C(=O)Nc2sc3c(c2C(N)=O)CCCC3)cc1OC: 91%
Nc1ncnc2n[nH]c(Nc3ccc(F)cc3)c12: 104%
Oc1ccc(-c2nc(-c3ccncc3)c(-c3ccc(F)cc3)[nH]2)cc1: 102%
Cc1ccc(Nc2nccc(N(C)c3ccc4c(C)n(C)nc4c3)n2)cc1S(N)(=O)=O: 115%
Cn1c2ccccc2c2c3c(c4c5ccccc5n(CCC#N)c4c21)CNC3=O: 96.6%
NCCNc1ncc(C(N)=O)c(Nc2cccc(C(F)(F)F)c2)n1: 105%
COc1cc2ncnc(Nc3ccc(F)c(Cl)c3)c2cc1OCCCN1CCOCC1: 96.4%
